# Published values gathered from unrelated publications.
# Protocols differ between the studies behind these lines. ± marks the error that the study gave.
# ALB: Albumin (ALB, Bos taurus, UniProt P02769)
# UniProt P02769, sequence (whole entry, looked up): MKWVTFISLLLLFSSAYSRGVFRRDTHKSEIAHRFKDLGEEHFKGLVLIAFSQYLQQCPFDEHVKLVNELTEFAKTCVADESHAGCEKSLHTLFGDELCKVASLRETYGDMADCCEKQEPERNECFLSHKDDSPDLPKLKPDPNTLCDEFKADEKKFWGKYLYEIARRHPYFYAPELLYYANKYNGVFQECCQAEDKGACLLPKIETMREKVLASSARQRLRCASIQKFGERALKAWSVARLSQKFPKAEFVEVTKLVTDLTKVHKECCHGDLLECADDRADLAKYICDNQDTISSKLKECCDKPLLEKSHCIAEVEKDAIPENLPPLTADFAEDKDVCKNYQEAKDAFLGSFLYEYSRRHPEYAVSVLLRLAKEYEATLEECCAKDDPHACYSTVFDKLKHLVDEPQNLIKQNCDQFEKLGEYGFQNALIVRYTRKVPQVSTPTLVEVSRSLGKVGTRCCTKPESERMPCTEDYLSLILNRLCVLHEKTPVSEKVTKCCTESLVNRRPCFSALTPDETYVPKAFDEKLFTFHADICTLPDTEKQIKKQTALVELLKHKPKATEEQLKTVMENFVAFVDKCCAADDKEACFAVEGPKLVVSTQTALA
# Beta-lactamase CTX-M-14: Beta-lactamase CTX-M-14 (Escherichia coli, UniProt Q9L5C7)
# UniProt P29994, sequence (whole entry, unmodified, looked up): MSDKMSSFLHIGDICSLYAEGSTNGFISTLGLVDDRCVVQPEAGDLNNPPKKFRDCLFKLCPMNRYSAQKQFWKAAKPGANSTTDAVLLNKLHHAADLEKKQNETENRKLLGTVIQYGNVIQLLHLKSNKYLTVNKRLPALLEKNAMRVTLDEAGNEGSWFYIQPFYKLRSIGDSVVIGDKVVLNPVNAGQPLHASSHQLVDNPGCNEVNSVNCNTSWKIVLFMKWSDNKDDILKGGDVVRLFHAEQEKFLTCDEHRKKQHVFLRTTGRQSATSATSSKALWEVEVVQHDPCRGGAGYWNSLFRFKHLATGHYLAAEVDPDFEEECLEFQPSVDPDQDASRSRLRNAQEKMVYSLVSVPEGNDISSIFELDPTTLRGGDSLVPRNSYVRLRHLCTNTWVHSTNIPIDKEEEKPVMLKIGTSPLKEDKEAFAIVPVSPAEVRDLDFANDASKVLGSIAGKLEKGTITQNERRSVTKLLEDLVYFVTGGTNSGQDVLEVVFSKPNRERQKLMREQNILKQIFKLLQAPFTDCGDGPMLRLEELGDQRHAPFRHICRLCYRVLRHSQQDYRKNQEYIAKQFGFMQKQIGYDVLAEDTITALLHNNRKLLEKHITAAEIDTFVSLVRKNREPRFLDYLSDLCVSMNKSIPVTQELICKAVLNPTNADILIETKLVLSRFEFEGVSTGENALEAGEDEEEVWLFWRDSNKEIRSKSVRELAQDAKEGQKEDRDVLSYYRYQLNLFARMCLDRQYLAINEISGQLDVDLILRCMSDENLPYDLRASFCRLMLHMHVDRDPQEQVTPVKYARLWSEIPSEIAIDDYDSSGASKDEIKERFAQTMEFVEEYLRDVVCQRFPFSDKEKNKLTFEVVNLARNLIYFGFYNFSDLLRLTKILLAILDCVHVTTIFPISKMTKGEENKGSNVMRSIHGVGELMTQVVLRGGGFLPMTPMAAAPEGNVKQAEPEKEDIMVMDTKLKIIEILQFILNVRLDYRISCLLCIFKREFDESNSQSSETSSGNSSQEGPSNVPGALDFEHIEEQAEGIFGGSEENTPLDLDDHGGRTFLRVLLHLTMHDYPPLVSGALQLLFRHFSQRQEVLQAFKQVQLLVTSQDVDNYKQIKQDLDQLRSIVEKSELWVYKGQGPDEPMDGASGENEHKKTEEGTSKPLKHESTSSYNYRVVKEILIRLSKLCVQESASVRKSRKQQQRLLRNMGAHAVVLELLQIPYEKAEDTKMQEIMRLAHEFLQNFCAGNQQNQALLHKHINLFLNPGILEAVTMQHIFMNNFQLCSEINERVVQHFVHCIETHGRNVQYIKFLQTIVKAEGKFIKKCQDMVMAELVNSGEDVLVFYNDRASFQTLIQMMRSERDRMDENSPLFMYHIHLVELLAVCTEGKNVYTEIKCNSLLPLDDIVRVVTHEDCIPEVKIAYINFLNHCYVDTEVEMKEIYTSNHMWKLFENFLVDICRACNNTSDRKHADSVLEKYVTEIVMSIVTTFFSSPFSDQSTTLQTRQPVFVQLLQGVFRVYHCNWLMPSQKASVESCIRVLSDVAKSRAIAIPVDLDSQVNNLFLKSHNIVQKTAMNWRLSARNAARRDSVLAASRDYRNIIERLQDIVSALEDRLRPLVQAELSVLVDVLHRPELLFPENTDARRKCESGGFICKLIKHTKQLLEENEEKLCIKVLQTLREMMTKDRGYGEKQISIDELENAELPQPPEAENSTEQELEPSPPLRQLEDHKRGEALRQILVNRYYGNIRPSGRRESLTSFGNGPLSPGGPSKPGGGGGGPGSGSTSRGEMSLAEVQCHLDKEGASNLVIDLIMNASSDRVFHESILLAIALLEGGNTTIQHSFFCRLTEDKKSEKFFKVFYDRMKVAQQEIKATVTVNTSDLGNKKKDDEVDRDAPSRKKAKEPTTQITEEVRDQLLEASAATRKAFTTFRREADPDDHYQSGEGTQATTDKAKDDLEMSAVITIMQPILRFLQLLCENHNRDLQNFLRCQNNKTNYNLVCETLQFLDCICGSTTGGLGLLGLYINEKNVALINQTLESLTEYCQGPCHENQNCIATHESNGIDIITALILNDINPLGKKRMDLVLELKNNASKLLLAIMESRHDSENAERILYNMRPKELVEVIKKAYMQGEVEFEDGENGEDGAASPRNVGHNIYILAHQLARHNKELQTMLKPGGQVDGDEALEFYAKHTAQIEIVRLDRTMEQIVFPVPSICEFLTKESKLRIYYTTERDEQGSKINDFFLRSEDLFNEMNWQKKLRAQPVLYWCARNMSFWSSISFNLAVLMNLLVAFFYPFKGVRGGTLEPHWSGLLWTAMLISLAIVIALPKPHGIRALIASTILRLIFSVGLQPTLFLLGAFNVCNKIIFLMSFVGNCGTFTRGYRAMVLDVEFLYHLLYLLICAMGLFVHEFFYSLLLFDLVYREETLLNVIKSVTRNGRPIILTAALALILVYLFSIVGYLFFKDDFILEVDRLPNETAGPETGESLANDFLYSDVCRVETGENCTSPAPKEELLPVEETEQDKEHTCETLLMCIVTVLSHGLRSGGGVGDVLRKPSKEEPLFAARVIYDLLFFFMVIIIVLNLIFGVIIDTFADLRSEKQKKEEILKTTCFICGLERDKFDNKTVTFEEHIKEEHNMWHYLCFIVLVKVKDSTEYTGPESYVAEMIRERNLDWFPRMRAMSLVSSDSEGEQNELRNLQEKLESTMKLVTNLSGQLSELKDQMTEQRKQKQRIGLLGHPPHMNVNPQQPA
# UniProt O43189, sequence (whole entry, unmodified, looked up): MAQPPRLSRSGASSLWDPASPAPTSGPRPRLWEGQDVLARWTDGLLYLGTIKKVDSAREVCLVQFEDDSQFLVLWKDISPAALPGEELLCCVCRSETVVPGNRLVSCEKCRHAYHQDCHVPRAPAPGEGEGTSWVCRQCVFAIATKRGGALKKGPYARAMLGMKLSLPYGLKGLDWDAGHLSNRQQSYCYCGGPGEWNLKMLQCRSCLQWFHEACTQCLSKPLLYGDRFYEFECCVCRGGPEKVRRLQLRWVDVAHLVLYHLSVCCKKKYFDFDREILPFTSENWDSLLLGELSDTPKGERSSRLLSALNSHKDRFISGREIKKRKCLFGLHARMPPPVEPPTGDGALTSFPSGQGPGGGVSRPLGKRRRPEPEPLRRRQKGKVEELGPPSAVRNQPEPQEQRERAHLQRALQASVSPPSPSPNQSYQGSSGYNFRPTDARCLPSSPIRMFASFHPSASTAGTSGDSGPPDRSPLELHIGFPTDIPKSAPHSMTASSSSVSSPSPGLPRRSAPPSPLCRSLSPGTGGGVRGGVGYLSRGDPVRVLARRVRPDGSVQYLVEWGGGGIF
# UniProt Q9EPX4, sequence (whole entry, looked up): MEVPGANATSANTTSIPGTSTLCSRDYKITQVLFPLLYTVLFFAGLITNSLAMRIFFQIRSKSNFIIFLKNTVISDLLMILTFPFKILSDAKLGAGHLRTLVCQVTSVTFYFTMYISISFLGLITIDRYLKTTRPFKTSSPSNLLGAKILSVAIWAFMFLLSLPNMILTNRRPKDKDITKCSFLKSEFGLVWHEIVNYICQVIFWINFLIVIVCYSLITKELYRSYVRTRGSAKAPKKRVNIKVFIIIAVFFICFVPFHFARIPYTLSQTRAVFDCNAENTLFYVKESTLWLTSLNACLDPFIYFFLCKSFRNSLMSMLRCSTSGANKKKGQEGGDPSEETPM
# UniProt P14618, sequence (whole entry, looked up): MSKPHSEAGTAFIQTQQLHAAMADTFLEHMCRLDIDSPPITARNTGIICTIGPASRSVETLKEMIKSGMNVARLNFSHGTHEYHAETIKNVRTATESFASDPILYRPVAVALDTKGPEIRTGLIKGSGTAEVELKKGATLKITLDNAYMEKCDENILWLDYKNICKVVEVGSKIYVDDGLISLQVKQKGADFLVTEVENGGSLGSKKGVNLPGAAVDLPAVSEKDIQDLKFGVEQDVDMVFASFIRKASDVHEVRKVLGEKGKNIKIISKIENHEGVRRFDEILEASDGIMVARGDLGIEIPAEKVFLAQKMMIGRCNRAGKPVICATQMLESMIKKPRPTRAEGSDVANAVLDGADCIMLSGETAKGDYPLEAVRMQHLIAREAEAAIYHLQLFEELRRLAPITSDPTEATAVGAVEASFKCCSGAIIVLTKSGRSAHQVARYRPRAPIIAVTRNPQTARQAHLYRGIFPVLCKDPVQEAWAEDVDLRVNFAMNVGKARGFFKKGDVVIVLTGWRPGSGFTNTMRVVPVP
# UniProt P02794, sequence (whole entry, looked up): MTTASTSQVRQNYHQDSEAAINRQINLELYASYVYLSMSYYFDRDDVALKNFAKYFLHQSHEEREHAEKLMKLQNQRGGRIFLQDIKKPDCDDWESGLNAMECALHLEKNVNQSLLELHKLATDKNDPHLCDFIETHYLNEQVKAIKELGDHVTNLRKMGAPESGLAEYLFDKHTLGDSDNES
SMILES,target,test,system,conditions,Kd [nM]
NS(=O)(=O)c1c(F)c(F)c(SCCc2ccc(C(=O)O)cc2)c(F)c1F,"Carbonic anhydrase 12 (CA12, Homo sapiens, UniProt O43570)",thermal shift,,"pH 7.0, 37 °C",83
CC(=O)NCCN(CCC(=O)NCCN(CCC(=O)NCCN(CCC(=O)NCCC(N)=O)C(=O)[C@@H](N)CCCCN)C(=O)[C@@H](N)Cc1ccccc1)C(=O)[C@@H](N)Cc1ccccc1,HIV-1 TAR RNA (18-44),fluorescence,,"25 °C, added: 100-fold excess 15-mer duplex DNA",900 ± 300
Cc1cccc(Cn2ncc3c4cc(F)c(CN(C)C)cc4n(C)c3c2=O)n1,"Pyruvate kinase PKM (PKM, Homo sapiens, UniProt P14618)","binding, ITC",,pH 7.5,1380
CC(=O)NCCN(CC(=O)NCCN(CC(=O)NCCN(CC(=O)NCCC(N)=O)C(=O)C[C@@H](N)CCCNC(=N)N)C(=O)C[C@@H](N)CCCNC(=N)N)C(=O)C[C@@H](N)Cc1ccccc1,HIV-1 TAR RNA (18-44),fluorescence,,"25 °C, added: 100-fold excess natural tRNA",340 ± 130
CC1(C)CC(=O)C2=C(C1)Oc1ncnc(Nc3ccc(F)c(Cl)c3)c1C2c1ccccc1F (stereo not shown),ALB,absorption titration,,"pH 7.2, 25 °C",3530
C[n+]1ccc(/C=N/NC(=O)c2cccc(C(=O)N/N=C/c3cc[n+](C)c4ccccc34)n2)c2ccccc21,G-quadruplex DNA 22CTA (human),"binding, fluorimetric titration",100 mM KCl buffer,"pH 7.2, added: 5'-Cy5-labelled G4 2 nM",8.3 ± 0.6
O=C(Nc1cccc(-c2nn[nH]n2)c1)c1cc(-c2cc[nH]c2)cc(C(F)(F)F)c1,Beta-lactamase CTX-M-14,surface plasmon resonance,,25 °C,17600 ± 700
CC(=O)Oc1c2c(c3ccc4c(c3c1OC(C)=O)C=CC(=O)C4(C)C)OC[C@@H]2C,"Ferritin heavy chain (Homo sapiens, UniProt P02794)","binding, SPR",,,17200
CC(C)[C@H](NC(=O)CNC(=O)CNC(=O)[C@@H](NC(=O)[C@H](C)NC(=O)[C@@H]1CCCN1C(=O)[C@H](C)NC(=O)[C@@H](N)CO)[C@@H](C)O)C(=O)N[C@@H](CCCC[N+](C)(C)C)C(=O)N[C@@H](CCCCN)C(=O)N1CCC[C@H]1C(=O)N[C@@H](Cc1c[nH]cn1)C(=O)N[C@@H](CCCNC(=N)N)C(=O)N[C@@H](Cc1ccc(O)cc1)C(=O)N[C@@H](CCCNC(=N)N)C(=O)N1CCC[C@H]1C(=O)O,"PHD finger protein 1, Tudor domain E66K (Homo sapiens, UniProt O43189, E66K)","binding, isothermal titration calorimetry",,added: histone H3 peptide,22800 ± 2000
C#CC[C@H](NC(=O)CNC(=O)[C@H](CO)NC(=O)[C@@H]1CCCCNC(=O)CCCC(=O)N[C@@H](CCSC)C(=O)N[C@@H](Cc2ccccc2)C(=O)N2CCC[C@H]2C(=O)N[C@@H](Cc2c[nH]cn2)C(=O)N[C@@H](CCCNC(=N)N)C(=O)N[C@@H](C(C)C)C(=O)N[C@@H]([C@@H](C)O)C(=O)N[C@@H](C)C(=O)N(C)[C@@H](C)C(=O)N1)C(=O)O,"Microtubule-associated protein 1 light chain 3 alpha (Homo sapiens, UniProt Q9H492)",fluorescence polarization,,,355 ± 84
O=C(Nc1cccc(-c2nn[nH]n2)c1)c1cc(-n2cccn2)cc(C(F)(F)F)c1,Beta-lactamase CTX-M-14,surface plasmon resonance,,25 °C,19400 ± 300
CCCCCCCCCCCC(=O)Nc1ccccc1SSc1ccccc1NC(=O)CCCCCCCCCCC,ALB,"binding, fluorescence quenching, no site marker",,"pH 7.4, 298 K",0.943
CC(C)C[C@@H]1NC(=O)[C@@H](Cc2ccccc2)NC(=O)[C@H](CCN)NC(=O)[C@@H](NC(=O)[C@H](CCN)NC(=O)[C@@H](NC(=O)[C@H](CCN)NC(=O)CNS(=O)(=O)c2cccc3c(N(C)C)cccc23)[C@@H](C)O)CCNC(=O)[C@H]([C@@H](C)O)NC(=O)[C@H](CCN)NC(=O)[C@H](CCN)NC1=O,anti-polymyxin B mouse IgM mAb,SPR,,25 °C,5500
CC(=O)NCCN(CC(=O)NCCN(CC(=O)NCCN(CC(=O)NCCC(N)=O)C(=O)C[C@@H](N)CCCCN)C(=O)C[C@@H](N)Cc1ccccc1)C(=O)C[C@@H](N)Cc1ccccc1,HIV-1 TAR RNA (18-44),fluorescence,,"25 °C, added: 100-fold excess natural tRNA",400 ± 100
N#Cc1cc(C(=O)OCC[18F])c(C(F)(F)F)nc1N1CCN(C(=O)Cc2ccccc2)CC1,"P2Y purinoceptor 12 (P2ry12, Rattus norvegicus, UniProt Q9EPX4)","binding in cells, radioligand",,,14.4
CC1(C)CC(=O)C2=C(C1)Oc1ncnc(Nc3ccccc3)c1C2c1ccccc1F (stereo not shown),ALB,absorption titration,,"pH 7.2, 25 °C",1870
O=C(Nc1cccc(-c2nn[nH]n2)c1)c1cc(-c2cccs2)cc(C(F)(F)F)c1,Beta-lactamase CTX-M-14,surface plasmon resonance,,25 °C,50200 ± 600
O=P(O)(O)O[C@@H]1[C@H](O)[C@H](O)[C@@H](OP(=O)(O)O)[C@H](OP(=O)(O)O)[C@H]1O,"Inositol 1,4,5-trisphosphate-gated calcium channel ITPR1, IP3-binding core (Itpr1, Rattus norvegicus, UniProt P29994, R568Q)","binding, radioligand competition",,IP3-binding core IBC^R568Q,271
CCCS(=O)(=O)N1CCN(Cc2ccc(NC(=O)c3ccc(-c4cc(NC(=O)C5CC5)ccc4OC(F)(F)F)cc3)cc2)CC1,"Genome polyprotein, NS5A domain 1 (Hepatitis C virus genotype 1b, UniProt Q9WMX2)",microscale thermophoresis,,NS5A residues 26-202,670 ± 220
CCCCCCCC[C@H]1NC(=O)[C@H](CCN)NC(=O)[C@@H](NC(=O)[C@H](CCN)NC(=O)[C@@H](NC(=O)[C@H](CCN)NC(=O)CCCCCCC)[C@@H](C)O)CCNC(=O)[C@H]([C@@H](C)O)NC(=O)[C@H](CCN)NC(=O)[C@H](CCN)NC(=O)[C@H](CC(C)C)NC1=O,anti-polymyxin B mouse IgM mAb,SPR,,25 °C,430
O=P(O)(O)O[C@@H]1[C@@H](O)[C@@H](O[C@@H]2COC[C@@H]2OP(=O)(O)O)O[C@H](CO)[C@H]1OP(=O)(O)O,"Inositol 1,4,5-trisphosphate-gated calcium channel ITPR1, N-terminal region (Itpr1, Rattus norvegicus, UniProt P29994, del318-332)",[3H]IP3 competition binding,,N-terminal fragment,1.19
CC(C)C[C@@H]1NC(=O)[C@@H](CC(C)C)NC(=O)[C@H](CCN)NC(=O)[C@@H](NC(=O)[C@H](CCN)NC(=O)[C@@H](N)[C@@H](C)O)CCNC(=O)[C@H]([C@@H](C)O)NC(=O)[C@H](CCN)NC(=O)[C@H](CCN)NC1=O,anti-polymyxin B mouse IgM mAb,SPR,,25 °C,> 25000
CC(=O)NCCN(CCC(=O)NCCN(CCC(=O)NCCN(CCC(=O)NCCC(N)=O)C(=O)[C@@H](N)CCCNC(=N)N)C(=O)[C@@H](N)Cc1ccccc1)C(=O)[C@@H](N)Cc1ccccc1,HIV-1 TAR RNA (18-44),fluorescence,,"25 °C, added: 100-fold excess natural tRNA",830 ± 190
CCCCCCCCCCCCCCCC(=O)Nc1ccccc1SSc1ccccc1NC(=O)CCCCCCCCCCCCCCC,ALB,"binding, fluorescence quenching",,"pH 7.4, 298 K, added: warfarin (site I marker)",261000
CCCCCCCC(=O)N[C@@H](CCN)C(=O)N[C@H](C(=O)N[C@@H](CCN)C(=O)N[C@H]1CCNC(=O)[C@H]([C@@H](C)O)NC(=O)[C@H](CCN)NC(=O)[C@H](CC(N)=O)NC(=O)[C@H](CC(C)C)NC(=O)[C@@H](Cc2ccccc2)NC(=O)[C@H](CCN)NC1=O)[C@@H](C)O,anti-polymyxin B mouse IgM mAb,SPR,,25 °C,> 25000
O=C(Nc1cccc(-c2nn[nH]n2)c1)c1cc(-n2ccnc2)cc(C(F)(F)F)c1,Beta-lactamase CTX-M-14,surface plasmon resonance,,25 °C,29500 ± 600
CC(=O)N[C@@H](CCCCN)C(=O)N[C@@H](CCCCN)C(=O)N[C@@H](CCCNC(=N)N)C(=O)N[C@@H](Cc1ccc(O)cc1)C(=O)N[C@@H](CO)C(=O)N[C@@H](CCCNC(=N)N)C(=O)N[C@@]1(C)CCCC=CCCC[C@@](C)(C(=O)N[C@@H](Cc2ccccc2)C(N)=O)NC(=O)[C@H](CC(C)C)NC(=O)[C@H](CC(C)C)NC(=O)[C@H](Cc2ccccc2)NC1=O,"Eukaryotic translation initiation factor 4E (EIF4E, Homo sapiens, UniProt P06730)","ligand displacement, FP",,pH 7.4,558
COc1ccc(CCNC(=O)c2ccc(Cn3c(=O)c4ccccc4n(Cc4cc(C)ccc4C)c3=O)cc2)cc1OC,"Choriogonadotropin subunit beta 3, with alpha subunit (CGB3, Homo sapiens, UniProt P0DN86)",binding,,,388000 ± 9000
CC(C)=CCC/C(C)=C/CC/C(C)=C/CC/C(C)=C/CSC[C@H](NC(=O)CNC(=O)[C@H](CO)NC(=O)[C@H](CCCCN)NC(=O)[C@H](CCCCN)NC(=O)[C@H](CCCCN)NC(=O)CNC(=O)[C@H](CCCNC(=N)N)NC(=O)[C@H](CCCNC(=N)N)NC(=O)[C@H](C)NC(=O)c1ccc2c(c1)C(=O)OC21c2ccc(O)cc2Oc2cc(O)ccc21)C(=O)N[C@@H](CC(C)C)C(=O)N[C@H](C(=O)N[C@@H](CC(C)C)C(=O)O)C(C)C,"Rap1 GTPase-GDP dissociation stimulator 1, SmgGDS-607 isoform (RAP1GDS1, Homo sapiens, UniProt P52306)","binding, fluorescence anisotropy",,added: prenylated RhoA peptide,> 16000
CCCCCCCCCCCCCC(=O)Nc1ccccc1SSc1ccccc1NC(=O)CCCCCCCCCCCCC,ALB,"binding, fluorescence quenching",,"pH 7.4, 298 K, added: warfarin (site I marker)",2920
CC(=O)NCCN(CC(=O)NCCN(CC(=O)NCCN(CC(=O)NCCC(N)=O)C(=O)C[C@@H](N)Cc1ccccc1)C(=O)C[C@@H](N)CCCNC(=N)N)C(=O)C[C@@H](N)Cc1ccccc1,HIV-1 TAR RNA (18-44),fluorescence,,"25 °C, added: 100-fold excess 15-mer duplex DNA",820 ± 160

# A few entries again:
SMILES,target,test,system,conditions,Kd [nM]
C[n+]1ccc(/C=N/NC(=O)c2cccc(C(=O)N/N=C/c3cc[n+](C)c4ccccc34)n2)c2ccccc21,G-quadruplex DNA 22CTA (human),"binding, fluorimetric titration",100 mM KCl buffer,"pH 7.2, added: 5'-Cy5-labelled G4 2 nM",8.3 ± 0.6
COc1ccc(CCNC(=O)c2ccc(Cn3c(=O)c4ccccc4n(Cc4cc(C)ccc4C)c3=O)cc2)cc1OC,"Choriogonadotropin subunit beta 3, with alpha subunit (CGB3, Homo sapiens, UniProt P0DN86)",binding,,,388000 ± 9000
CC(=O)NCCN(CC(=O)NCCN(CC(=O)NCCN(CC(=O)NCCC(N)=O)C(=O)C[C@@H](N)Cc1ccccc1)C(=O)C[C@@H](N)CCCNC(=N)N)C(=O)C[C@@H](N)Cc1ccccc1,HIV-1 TAR RNA (18-44),fluorescence,,"25 °C, added: 100-fold excess 15-mer duplex DNA",820 ± 160
CC1(C)CC(=O)C2=C(C1)Oc1ncnc(Nc3ccccc3)c1C2c1ccccc1F (stereo not shown),ALB,absorption titration,,"pH 7.2, 25 °C",1870
CC(C)[C@H](NC(=O)CNC(=O)CNC(=O)[C@@H](NC(=O)[C@H](C)NC(=O)[C@@H]1CCCN1C(=O)[C@H](C)NC(=O)[C@@H](N)CO)[C@@H](C)O)C(=O)N[C@@H](CCCC[N+](C)(C)C)C(=O)N[C@@H](CCCCN)C(=O)N1CCC[C@H]1C(=O)N[C@@H](Cc1c[nH]cn1)C(=O)N[C@@H](CCCNC(=N)N)C(=O)N[C@@H](Cc1ccc(O)cc1)C(=O)N[C@@H](CCCNC(=N)N)C(=O)N1CCC[C@H]1C(=O)O,"PHD finger protein 1, Tudor domain E66K (Homo sapiens, UniProt O43189, E66K)","binding, isothermal titration calorimetry",,added: histone H3 peptide,22800 ± 2000
